Published values from different studies.
Compare with care: the assays were run in different laboratories. “And” joins repeats or separate records; there may be more than shown. ± marks the error that the study gave.
AGER: Advanced glycosylation end product-specific receptor (AGER, Homo sapiens, UniProt Q15109)
Chain of UniProt Q15109 (whole entry, looked up): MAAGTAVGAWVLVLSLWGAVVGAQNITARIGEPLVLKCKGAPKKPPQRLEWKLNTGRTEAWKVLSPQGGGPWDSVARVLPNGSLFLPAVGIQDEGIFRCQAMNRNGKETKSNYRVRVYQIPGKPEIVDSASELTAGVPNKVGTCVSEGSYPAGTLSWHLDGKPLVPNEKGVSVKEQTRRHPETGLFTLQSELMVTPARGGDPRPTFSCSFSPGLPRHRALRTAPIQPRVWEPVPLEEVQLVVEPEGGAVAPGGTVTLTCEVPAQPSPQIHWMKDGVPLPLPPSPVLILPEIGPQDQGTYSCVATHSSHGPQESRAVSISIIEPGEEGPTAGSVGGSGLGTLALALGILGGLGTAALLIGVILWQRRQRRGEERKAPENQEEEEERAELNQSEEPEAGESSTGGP
CTSB: Cathepsin B (CTSB, Homo sapiens, UniProt P07858)
SIRT2: NAD-dependent protein deacetylase sirtuin-2 (SIRT2, Homo sapiens, UniProt Q8IXJ6)
Chain of UniProt Q8IXJ6 (whole entry, looked up): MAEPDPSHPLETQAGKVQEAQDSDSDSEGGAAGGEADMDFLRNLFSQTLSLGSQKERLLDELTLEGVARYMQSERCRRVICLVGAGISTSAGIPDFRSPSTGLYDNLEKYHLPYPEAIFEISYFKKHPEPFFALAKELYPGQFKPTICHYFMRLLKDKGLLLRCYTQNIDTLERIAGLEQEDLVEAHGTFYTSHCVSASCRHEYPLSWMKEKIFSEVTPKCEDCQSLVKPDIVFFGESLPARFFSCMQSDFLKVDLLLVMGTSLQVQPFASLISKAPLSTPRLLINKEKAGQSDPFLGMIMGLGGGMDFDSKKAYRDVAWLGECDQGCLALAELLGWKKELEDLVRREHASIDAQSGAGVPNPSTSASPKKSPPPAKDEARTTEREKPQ
Htr1b: 5-hydroxytryptamine receptor 1B (Htr1b, Rattus norvegicus, UniProt P28564)
Chain of UniProt P28564 (whole entry, looked up): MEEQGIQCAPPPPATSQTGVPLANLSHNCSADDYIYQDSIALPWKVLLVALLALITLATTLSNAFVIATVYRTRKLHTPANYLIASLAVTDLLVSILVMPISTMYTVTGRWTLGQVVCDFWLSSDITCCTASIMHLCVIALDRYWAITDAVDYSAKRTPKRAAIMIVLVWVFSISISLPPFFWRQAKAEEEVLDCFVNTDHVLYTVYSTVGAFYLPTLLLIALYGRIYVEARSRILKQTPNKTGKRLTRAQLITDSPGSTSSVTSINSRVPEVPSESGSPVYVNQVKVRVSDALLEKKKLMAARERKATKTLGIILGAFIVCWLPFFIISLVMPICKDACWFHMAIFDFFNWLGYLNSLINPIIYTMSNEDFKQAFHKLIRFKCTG
SRD5A1: 3-oxo-5-alpha-steroid 4-dehydrogenase 1 (SRD5A1, Homo sapiens, UniProt P18405)
Chain of UniProt P18405 (whole entry, looked up): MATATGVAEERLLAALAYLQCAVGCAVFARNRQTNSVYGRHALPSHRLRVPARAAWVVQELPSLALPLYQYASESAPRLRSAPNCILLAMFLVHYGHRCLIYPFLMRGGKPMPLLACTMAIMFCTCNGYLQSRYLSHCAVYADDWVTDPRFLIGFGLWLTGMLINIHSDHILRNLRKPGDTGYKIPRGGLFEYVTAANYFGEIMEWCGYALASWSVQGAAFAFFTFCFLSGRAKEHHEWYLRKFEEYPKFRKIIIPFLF
RPS6KA2: Ribosomal protein S6 kinase alpha-2 (RPS6KA2, Homo sapiens, UniProt Q15349)
Chain of UniProt Q15349 (whole entry, looked up): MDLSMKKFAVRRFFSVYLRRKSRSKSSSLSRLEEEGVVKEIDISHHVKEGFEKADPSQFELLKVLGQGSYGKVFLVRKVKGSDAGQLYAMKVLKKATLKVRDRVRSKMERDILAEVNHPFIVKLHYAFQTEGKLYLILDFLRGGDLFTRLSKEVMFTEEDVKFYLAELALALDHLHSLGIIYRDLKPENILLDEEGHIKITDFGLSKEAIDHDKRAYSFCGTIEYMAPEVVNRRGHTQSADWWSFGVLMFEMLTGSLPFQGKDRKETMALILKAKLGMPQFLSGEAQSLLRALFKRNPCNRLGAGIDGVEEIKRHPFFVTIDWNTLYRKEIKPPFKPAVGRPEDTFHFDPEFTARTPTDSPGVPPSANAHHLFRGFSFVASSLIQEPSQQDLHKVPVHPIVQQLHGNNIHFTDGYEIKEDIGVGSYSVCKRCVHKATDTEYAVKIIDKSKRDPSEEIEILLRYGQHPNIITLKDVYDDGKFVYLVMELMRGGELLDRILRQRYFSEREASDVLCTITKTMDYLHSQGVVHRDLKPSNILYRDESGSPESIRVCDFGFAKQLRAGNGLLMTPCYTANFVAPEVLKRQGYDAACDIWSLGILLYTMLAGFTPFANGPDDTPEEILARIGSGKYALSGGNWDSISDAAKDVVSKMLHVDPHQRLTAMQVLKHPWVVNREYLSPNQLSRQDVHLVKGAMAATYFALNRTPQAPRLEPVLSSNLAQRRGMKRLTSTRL
JAK2: Tyrosine-protein kinase JAK2 (JAK2, Homo sapiens, UniProt O60674)
Chain of UniProt O60674 (whole entry, looked up): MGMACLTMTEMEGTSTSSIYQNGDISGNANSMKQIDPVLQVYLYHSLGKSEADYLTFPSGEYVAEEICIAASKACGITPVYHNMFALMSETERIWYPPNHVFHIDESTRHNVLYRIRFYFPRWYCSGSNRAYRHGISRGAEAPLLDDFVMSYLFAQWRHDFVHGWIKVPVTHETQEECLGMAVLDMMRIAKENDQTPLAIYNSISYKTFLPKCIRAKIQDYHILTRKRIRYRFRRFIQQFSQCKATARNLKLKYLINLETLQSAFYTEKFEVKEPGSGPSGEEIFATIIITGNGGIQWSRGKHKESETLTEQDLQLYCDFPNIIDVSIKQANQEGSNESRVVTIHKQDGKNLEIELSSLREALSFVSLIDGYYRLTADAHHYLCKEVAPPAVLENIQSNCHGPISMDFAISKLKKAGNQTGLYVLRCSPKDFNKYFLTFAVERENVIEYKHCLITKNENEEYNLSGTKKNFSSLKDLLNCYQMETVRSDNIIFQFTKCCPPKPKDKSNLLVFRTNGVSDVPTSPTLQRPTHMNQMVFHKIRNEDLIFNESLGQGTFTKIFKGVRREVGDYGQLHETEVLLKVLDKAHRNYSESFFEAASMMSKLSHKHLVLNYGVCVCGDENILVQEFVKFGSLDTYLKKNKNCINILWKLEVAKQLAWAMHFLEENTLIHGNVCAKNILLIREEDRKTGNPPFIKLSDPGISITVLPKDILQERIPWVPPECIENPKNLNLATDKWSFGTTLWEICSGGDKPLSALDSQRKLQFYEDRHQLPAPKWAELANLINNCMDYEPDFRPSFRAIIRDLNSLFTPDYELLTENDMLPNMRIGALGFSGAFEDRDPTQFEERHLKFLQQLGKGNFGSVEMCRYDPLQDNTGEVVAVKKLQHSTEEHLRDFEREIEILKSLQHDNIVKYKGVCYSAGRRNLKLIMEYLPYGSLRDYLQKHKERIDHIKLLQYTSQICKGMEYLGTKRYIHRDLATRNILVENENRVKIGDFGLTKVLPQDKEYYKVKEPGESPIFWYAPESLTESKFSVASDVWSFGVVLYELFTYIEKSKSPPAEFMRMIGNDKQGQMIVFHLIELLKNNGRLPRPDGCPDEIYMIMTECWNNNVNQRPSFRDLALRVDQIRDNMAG
PRKAA2 with beta1 gamma1: 5'-AMP-activated protein kinase catalytic subunit alpha-2, with beta1 gamma1 (PRKAA2, Homo sapiens, UniProt P54646)
Chain of UniProt Q9UM07 (whole entry, looked up): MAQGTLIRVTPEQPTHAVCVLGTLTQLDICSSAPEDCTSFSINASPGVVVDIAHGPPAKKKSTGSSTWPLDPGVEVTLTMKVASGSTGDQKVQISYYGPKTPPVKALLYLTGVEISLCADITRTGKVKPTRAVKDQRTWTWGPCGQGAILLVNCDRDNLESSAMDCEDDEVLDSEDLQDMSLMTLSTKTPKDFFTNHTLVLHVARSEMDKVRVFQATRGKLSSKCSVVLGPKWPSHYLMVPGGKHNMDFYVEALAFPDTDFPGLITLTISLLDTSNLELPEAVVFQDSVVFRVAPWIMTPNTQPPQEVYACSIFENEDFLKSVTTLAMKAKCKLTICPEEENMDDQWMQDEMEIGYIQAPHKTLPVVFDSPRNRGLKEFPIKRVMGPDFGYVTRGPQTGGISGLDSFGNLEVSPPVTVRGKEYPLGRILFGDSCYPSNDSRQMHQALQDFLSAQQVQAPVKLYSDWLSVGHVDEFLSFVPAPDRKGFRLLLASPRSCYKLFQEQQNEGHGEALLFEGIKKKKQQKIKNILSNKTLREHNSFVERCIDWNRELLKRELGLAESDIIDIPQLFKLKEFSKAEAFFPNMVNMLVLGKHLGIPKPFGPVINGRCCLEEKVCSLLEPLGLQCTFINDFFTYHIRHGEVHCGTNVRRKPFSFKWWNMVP
Chain of UniProt Q9UL62 (whole entry, looked up): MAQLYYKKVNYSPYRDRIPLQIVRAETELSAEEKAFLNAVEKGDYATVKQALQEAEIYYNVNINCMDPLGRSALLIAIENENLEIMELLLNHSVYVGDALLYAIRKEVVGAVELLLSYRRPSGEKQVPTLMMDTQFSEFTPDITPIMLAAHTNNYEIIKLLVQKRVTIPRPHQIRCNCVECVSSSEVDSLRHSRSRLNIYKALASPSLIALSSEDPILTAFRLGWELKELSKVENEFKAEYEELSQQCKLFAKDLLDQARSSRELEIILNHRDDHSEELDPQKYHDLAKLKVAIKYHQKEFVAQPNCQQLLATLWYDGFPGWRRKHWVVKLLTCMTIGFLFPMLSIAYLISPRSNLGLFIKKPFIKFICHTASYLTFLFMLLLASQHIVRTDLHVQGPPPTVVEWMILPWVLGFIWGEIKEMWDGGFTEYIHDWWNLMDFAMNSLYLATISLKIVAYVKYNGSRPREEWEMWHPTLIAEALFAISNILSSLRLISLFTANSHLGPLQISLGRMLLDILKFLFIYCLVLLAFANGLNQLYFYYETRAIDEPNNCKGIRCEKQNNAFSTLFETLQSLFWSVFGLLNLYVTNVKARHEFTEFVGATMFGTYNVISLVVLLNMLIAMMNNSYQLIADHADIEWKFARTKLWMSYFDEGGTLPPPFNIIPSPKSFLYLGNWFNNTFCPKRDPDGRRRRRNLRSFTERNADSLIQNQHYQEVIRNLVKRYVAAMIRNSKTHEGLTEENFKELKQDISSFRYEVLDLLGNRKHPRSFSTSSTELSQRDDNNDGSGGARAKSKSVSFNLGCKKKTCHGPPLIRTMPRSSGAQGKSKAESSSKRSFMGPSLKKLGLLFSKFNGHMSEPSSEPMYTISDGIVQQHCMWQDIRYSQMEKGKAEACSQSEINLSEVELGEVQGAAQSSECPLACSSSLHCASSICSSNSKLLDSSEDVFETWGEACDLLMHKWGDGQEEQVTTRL

Structure (SMILES) = NC(=O)[C@@H](O)C[C@H]1CCc2sc3ncnc(O[C@H]4CC[C@H](N5CCOCC5)CC4)c3c21; target = TSSK6 (Homo sapiens, UniProt Q9BXA6); assay = enzyme activity, inhibitor; setting = 10 µM; inhibition = -7%
Structure (SMILES) = CN1CCN(Cc2ccc(-c3ccc(CO[C@H]4CCC[C@@H]4NC(=O)c4cc(-c5cnn(C)c5)cnc4N)cc3)cc2)CC1; target = 5'-AMP-activated protein kinase catalytic subunit alpha-2, with beta2 gamma2 (PRKAA2, Homo sapiens, UniProt P54646); assay = SelectScreen kinase profiling; setting = 0.1 µM; inhibition = 4%
Structure (SMILES) = Cc1ccc(NC(=O)/C(=C/c2ccc(Cl)cc2Cl)Sc2ccc(C)cc2)cc1; target = AGER; assay = AGE2-BSA binding, inhibitor, competitive ELISA; setting = 100 µM, 60 min, added: AGE2-BSA; inhibition = 76%
Structure (SMILES) = CC1Cc2ccccc2N1C(=O)CN1CCN(c2ccccc2)CC1 (stereo not shown); target = DRD5 (Homo sapiens, UniProt P21918); assay = radioligand binding; setting = concentration not given, added: [3H]SCH23390; inhibition = 18%
Structure (SMILES) = Cc1ccc(CNC(=O)C(CCc2ccccc2)NC(=O)C(NC(=O)Cc2cccc(Oc3ccccc3)c2)C(C)O)cc1 (stereo not shown); target = CTSB; assay = enzyme activity, inhibitor; setting = 100 µM; inhibition = -3%
Structure (SMILES) = O=C(NCCCCc1ccccc1)n1c(=O)oc2cc(-c3ccc(F)cc3)ccc21; target = Caspase-3 (CASP3, Homo sapiens, UniProt P42574); assay = enzyme activity, inhibitor; setting = 10 µM; inhibition = 1.9%
Structure (SMILES) = COCC(=O)N1CCc2cc(-c3csc(NC(=O)c4cc(OC)cc(OC)c4)n3)ccc21; target = Estrogen receptor (ESR1, Homo sapiens, UniProt P03372); assay = cell-free assay; setting = 10 µM; inhibition = 6%
Structure (SMILES) = COc1ncc2nc(C)n(Cc3ncc(S(N)(=O)=O)cc3F)c2c1-c1ccccc1; target = NR3C1 (Homo sapiens, UniProt P04150); assay = antagonist, cell-based; setting = 10 µM; inhibition = 9.63%
Structure (SMILES) = O=C1CO[C@H](CNC(=O)C2(c3ccc(Cl)cc3)CC2)CN1C1Cc2ccccc2C1; target = CCR1 (Homo sapiens, UniProt P32246); assay = β-arrestin recruitment, antagonist; setting = 1 µM; inhibition = 4%
Structure (SMILES) = CC(C)(C)CNC(=O)C[C@H](NC(=O)CCc1ccccc1)C(=O)N[C@@H](Cc1cccnc1)C(=O)NCc1ccccc1Cl; target = CTSB; assay = enzyme activity, inhibitor; setting = 100 µM; inhibition = -6%
Structure (SMILES) = CC(=S)NCCCC[C@H](NC(=O)OCc1ccccc1)C(=O)N[C@@H](Cc1c[nH]c2ccccc12)C(=O)NC(C)C; target = SIRT2; assay = enzyme activity, inhibitor; setting = 1 µM; inhibition = 14%
Structure (SMILES) = C[Si]1(C[C@H](CN)CC(=O)O)CCCC1; target = Htr1b; assay = ligand displacement, radioligand; setting = 70 µM; inhibition = 3%
Structure (SMILES) = C/C=C/C(=O)Nc1ccc2nc(NCCCCCN(C)C)nc(NCCCCCCN(C)C)c2c1; target = PRMT5 (Homo sapiens, UniProt O14744); assay = enzyme activity, inhibitor, radiometric; setting = 50 µM; inhibition = 3%
Structure (SMILES) = COc1cc(/C=C/C(=O)Oc2cc(C(F)(F)F)ccc2C(F)(F)F)ccc1O; target = SRD5A1; assay = enzyme activity in cells, inhibitor; test system = HaCaT; setting = 10 µM; inhibition = 58.2%
Structure (SMILES) = Cc1cccc(O[C@H]2CCC[C@@H](C(C)CNCc3ccncc3)C2)c1 (relative stereo); target = RPS6KA2; assay = kinome profiling; setting = 10 µM; inhibition = -5%
Structure (SMILES) = CC(C)Cn1c(SCC(=O)N2CCc3ccccc3C2)nc2cc(Cl)ccc2c1=O; target = HTR3A (Homo sapiens, UniProt P46098); assay = ligand displacement, radioligand; setting = 10 µM; inhibition = 2%
Structure (SMILES) = CC(=O)Oc1ccc(/C=C/C(=O)Oc2cc(C(F)(F)F)ccc2C(F)(F)F)cc1OC(C)=O; target = SRD5A1; assay = enzyme activity in cells, inhibitor; test system = HaCaT; setting = 50 µM; inhibition = 24.6%
Structure (SMILES) = CC(=O)N(C)Cc1cccc(-c2cc3c(c(C(F)(F)F)c2)CCCC3N(C)C(=O)COC[C@@H]2CCNC[C@@H]2F)c1 (mixture of isomers); target = Translation initiation factor eIF2B subunit beta/Translation initiation factor eIF2B subunit delta (Homo sapiens, UniProt P49770+Q9UI10); assay = ligand displacement, TR-FRET; setting = 100 mM; inhibition = 76%
Structure (SMILES) = Cn1ccc2cc(-n3c(=O)[nH]c4sc5c(c4c3=O)CCCC5)ccc21; target = Cacna1b (Rattus norvegicus, UniProt Q02294); assay = cell-free assay; setting = 10 µM; inhibition = -8%
Structure (SMILES) = Cc1ccc(CNC(=O)[C@H](CCc2ccccc2)NC(=O)[C@H](CCc2ccccc2)NC(=O)Cc2cccc(Oc3ccccc3)c2)cc1; target = CTSB; assay = enzyme activity, inhibitor; setting = 100 µM; inhibition = 15%
Structure (SMILES) = C=CC(=O)Nc1cccc(-c2cnc3[nH]cc(C(=O)NC(C)(C)C)c3n2)c1; target = RPS6KA2; assay = enzyme activity, inhibitor; setting = 0.1 µM; inhibition = 39%
Structure (SMILES) = O=C1c2sc(-c3ccc(N4CCC(CO)CC4)nc3F)nc2CCN1c1cccnc1; target = ADRA1B (Homo sapiens, UniProt P35368); assay = ligand displacement, radioligand; setting = 1 µM; inhibition = -3%
Structure (SMILES) = CO[C@@H](C)c1c(NC(=O)Nc2cnc(-n3nccn3)c(C(F)(F)F)c2)cnc2sc(C)nc12; target = Htr1b; assay = ligand displacement, radioligand; setting = 10 µM; inhibition = 2%
Structure (SMILES) = Cn1sc(Nc2c(Cl)ccc3ncccc23)c(C#N)c1=O; target = CD38 (Homo sapiens, UniProt P28907); assay = enzyme activity, inhibitor; setting = 10 µM; inhibition = 1%
Structure (SMILES) = O=C(Nc1ccc(Cl)cc1)Nc1ccc(C2=NNC(c3ccc(Cl)cc3)C2)cc1 (stereo not shown); target = AGER; setting = 100 µM; inhibition = 41%
Structure (SMILES) = COC(=O)/C=C/c1ccc(O)c(O)c1; target = SRD5A1; assay = enzyme activity in cells, inhibitor; test system = HaCaT; setting = 50 µM; inhibition = 36.2%
Structure (SMILES) = Cl.Cl.N[C@@H](C(=O)N1CCCC1)C1CCN(c2nccc3c(-c4ncc(Cl)cc4Cl)cccc23)CC1; target = PADI4 (Homo sapiens, UniProt Q9UM07); assay = enzyme activity, inhibitor; setting = 306 pM, added: Ca2+ 0.4 mM; inhibition = 3.66% and -3.72% and 3.81%
Structure (SMILES) = Cc1cnc2nc1Nc1cccc(c1)COCc1cc(ccc1OCCN1CCOCC1)N2; target = JAK2; assay = inhibitor, Z'-LYTE kinase; setting = 0.4572 nM; inhibition = 20.5% and 8.47% and 21.7%
Structure (SMILES) = CCn1cc(C(=O)O)c(=O)c2c(N)c(F)c(NC3CCCCC3)cc21; target = PRKAA2 with beta1 gamma1; assay = kinase activity; setting = 0.1 µM, added: ATP at Km; inhibition = -5.7%
Structure (SMILES) = Cc1cnc2nc1Nc1cccc(c1)COCCCCOCc1cc(ccc1OCCN1CCCC1)N2; target = JAK2; assay = inhibitor, Z'-LYTE kinase; setting = 123.5 nM; inhibition = 35.5% and 41.9% and 42%
Structure (SMILES) = Cc1ccc(N(O)/N=N/c2ccc(S(=O)(=O)Nc3nccs3)cc2)cc1; target = α-glucosidase, rat intestine; assay = enzyme activity; setting = 120 µg/mL, added: 4-nitrophenyl α-D-glucopyranoside; inhibition = 22.5 ± 0.05%
Structure (SMILES) = O=C(Nc1ccc(C(=O)c2c[nH]cc2-c2ccc(Cl)cc2)cc1)Nc1ccc(Cl)c(Cl)c1; target = AGER; setting = 100 µM; inhibition = 5%
Structure (SMILES) = N=C(N)NCCCC(NC(=O)C(CC(=O)NO)Cc1ccc2ccccc2c1)C(=O)NC(Cc1c[nH]c2ccccc12)C(=O)NC(CCC(=O)O)C(N)=O (stereo not shown); target = Matrilysin (MMP7, Homo sapiens, UniProt P09237); setting = 1 µM; inhibition = 8%
Structure (SMILES) = COc1ccc(NC(=O)Nc2ccc(C3=NNC(c4ccc(Cl)cc4)C3)cc2)cc1 (stereo not shown); target = AGER; setting = 100 µM; inhibition = 1%
Structure (SMILES) = C[Si](C)(C)C[C@H](CN)CC(=O)O; target = TRHR (Homo sapiens, UniProt P34981); assay = ligand displacement, radioligand; setting = 250 µM; inhibition = -12%
Structure (SMILES) = COc1ccc(NC(=O)Nc2ccc(C3=NNC(c4ccc(Br)cc4)C3)cc2)cc1 (stereo not shown); target = AGER; setting = 100 µM; inhibition = 12%
Structure (SMILES) = CCCCCCN(O)C(=O)CCCCC[C@@H]1NC(=O)[C@H]([C@@H](C)CC)NC(=O)[C@H](Cc2ccccc2C(F)(F)F)NC(=O)CCSCc2cccc(n2)CSCCCNC1=O; target = HDAC2 (Homo sapiens, UniProt Q92769); assay = enzyme activity, inhibitor, fluorogenic; setting = 30 µM; inhibition = 45%
Structure (SMILES) = O=C(O)CCNC(=S)NCCCC[C@H](NS(=O)(=O)c1cccc(F)c1)C(=O)N[C@@H](Cc1c[nH]c2ccccc12)C(=O)NC1CCC1; target = SIRT2; assay = enzyme activity, inhibitor; setting = 10 µM; inhibition = 6%
Structure (SMILES) = Cc1cnc2nc1Nc1cc(F)cc(c1)COC/C=C/COCc1cc(ccc1OCCN1CCCC1)N2; target = JAK2; assay = inhibitor, Z'-LYTE kinase; setting = 4.115 nM; inhibition = 49.2% and 38.6% and 39.5%
Structure (SMILES) = CN(C)C/C=C/C(=O)Nc1ccc2nc(NCCCCCN(C)C)nc(NCCCCCCN(C)C)c2c1; target = DNA (cytosine-5)-methyltransferase 3B, with DNMT3L (DNMT3B, Homo sapiens, UniProt Q9UBC3); assay = enzyme activity; setting = 50 µM; inhibition = -10%
Structure (SMILES) = CC(=O)C12NC(C)(C)CC1(C)C(=O)C1=C2c2c(c3c4n2C(C)(C)CC2=C4C4(CC(C)(C)NC(C)(C4)C2=O)CC3(C)C)C(=O)C(C)(C)N1 (single isomer, unassigned; (-)); target = TRPC5 (Homo sapiens, UniProt Q9UL62); assay = ion current, antagonist, whole-cell patch clamp; test system = HEK293T; setting = 10 µM; inhibition = 10.91 ± 0.04%
Structure (SMILES) = C=CC(=O)N1Cc2nc(-c3cc(-c4cc(Cl)cnc4Cl)c(F)cc3F)n(-c3ccncn3)c2C1; target = PRKAA2 with beta1 gamma1; assay = kinome panel; setting = 1 µM; inhibition = -0.7%
Structure (SMILES) = O=C1c2sc(-c3ccc(N4CCC(F)C4)nc3F)nc2CCN1c1cccnc1 (stereo not shown); target = Maoa (Rattus norvegicus, UniProt P21396); assay = ligand displacement, radioligand; setting = 1 µM; inhibition = 2%
Structure (SMILES) = Cc1[nH]nc2c1N=C(c1ccccc1Cl)c1cnc(N3CCOCC3)cc1N2; target = PDK2 (Homo sapiens, UniProt Q15119); assay = enzyme activity, inhibitor; setting = 0.5 µM; inhibition = 18.4%
Structure (SMILES) = Cc1cnc2nc1Nc1cccc(c1)COC/C=C/COCc1cc(ccc1OCCN1CCOCC1)N2; target = JAK2; assay = inhibitor, Z'-LYTE kinase; setting = 15.62 nM; inhibition = 93.1% and 92.9% and 94.2%
Structure (SMILES) = CCCCCNC(=O)N1N=C(c2ccc(Cl)cc2)CC1c1ccc(NC(=O)Nc2ccc(F)cc2)cc1 (stereo not shown); target = AGER; setting = 100 µM; inhibition = 34%

For quick reference, copied from above:
Structure (SMILES) = Cc1ccc(CNC(=O)[C@H](CCc2ccccc2)NC(=O)[C@H](CCc2ccccc2)NC(=O)Cc2cccc(Oc3ccccc3)c2)cc1; target = CTSB; assay = enzyme activity, inhibitor; setting = 100 µM; inhibition = 15%
Structure (SMILES) = Cn1sc(Nc2c(Cl)ccc3ncccc23)c(C#N)c1=O; target = CD38 (Homo sapiens, UniProt P28907); assay = enzyme activity, inhibitor; setting = 10 µM; inhibition = 1%
Structure (SMILES) = CC(C)(C)CNC(=O)C[C@H](NC(=O)CCc1ccccc1)C(=O)N[C@@H](Cc1cccnc1)C(=O)NCc1ccccc1Cl; target = CTSB; assay = enzyme activity, inhibitor; setting = 100 µM; inhibition = -6%
Structure (SMILES) = C/C=C/C(=O)Nc1ccc2nc(NCCCCCN(C)C)nc(NCCCCCCN(C)C)c2c1; target = PRMT5 (Homo sapiens, UniProt O14744); assay = enzyme activity, inhibitor, radiometric; setting = 50 µM; inhibition = 3%
Structure (SMILES) = COc1ccc(NC(=O)Nc2ccc(C3=NNC(c4ccc(Cl)cc4)C3)cc2)cc1 (stereo not shown); target = AGER; setting = 100 µM; inhibition = 1%
Structure (SMILES) = COc1cc(/C=C/C(=O)Oc2cc(C(F)(F)F)ccc2C(F)(F)F)ccc1O; target = SRD5A1; assay = enzyme activity in cells, inhibitor; test system = HaCaT; setting = 10 µM; inhibition = 58.2%
Structure (SMILES) = Cc1cnc2nc1Nc1cccc(c1)COCCCCOCc1cc(ccc1OCCN1CCCC1)N2; target = JAK2; assay = inhibitor, Z'-LYTE kinase; setting = 123.5 nM; inhibition = 35.5% and 41.9% and 42%
